Measured values collected from several papers.
Compare with care: the assays were run in different laboratories. ± gives the spread as reported.
lasR: Transcriptional activator protein LasR (lasR, Pseudomonas aeruginosa, UniProt P25084)
CNR2: Cannabinoid receptor 2 (CNR2, Homo sapiens, UniProt P34972)
Oprm1: Mu-type opioid receptor (Oprm1, Rattus norvegicus, UniProt P33535)

The chains behind the UniProt entries cited, without tags or fusion partners.
UniProt P25084, whole entry: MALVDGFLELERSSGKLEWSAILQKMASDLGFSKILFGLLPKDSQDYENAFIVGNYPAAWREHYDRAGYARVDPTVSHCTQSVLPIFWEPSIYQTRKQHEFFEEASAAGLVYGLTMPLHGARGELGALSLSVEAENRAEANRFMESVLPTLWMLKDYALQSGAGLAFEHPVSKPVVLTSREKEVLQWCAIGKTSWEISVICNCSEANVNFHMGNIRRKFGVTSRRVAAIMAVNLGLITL
UniProt P34972, whole entry: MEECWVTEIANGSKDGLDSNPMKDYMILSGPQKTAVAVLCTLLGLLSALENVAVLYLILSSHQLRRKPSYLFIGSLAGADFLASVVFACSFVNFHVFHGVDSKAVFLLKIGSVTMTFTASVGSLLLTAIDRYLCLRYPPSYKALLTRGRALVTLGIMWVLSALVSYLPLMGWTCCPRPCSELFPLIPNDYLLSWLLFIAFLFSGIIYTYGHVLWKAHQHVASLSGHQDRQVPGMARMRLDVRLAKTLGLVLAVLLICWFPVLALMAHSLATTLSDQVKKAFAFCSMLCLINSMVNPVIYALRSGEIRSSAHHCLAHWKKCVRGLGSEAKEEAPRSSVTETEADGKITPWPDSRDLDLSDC
UniProt P33535, whole entry: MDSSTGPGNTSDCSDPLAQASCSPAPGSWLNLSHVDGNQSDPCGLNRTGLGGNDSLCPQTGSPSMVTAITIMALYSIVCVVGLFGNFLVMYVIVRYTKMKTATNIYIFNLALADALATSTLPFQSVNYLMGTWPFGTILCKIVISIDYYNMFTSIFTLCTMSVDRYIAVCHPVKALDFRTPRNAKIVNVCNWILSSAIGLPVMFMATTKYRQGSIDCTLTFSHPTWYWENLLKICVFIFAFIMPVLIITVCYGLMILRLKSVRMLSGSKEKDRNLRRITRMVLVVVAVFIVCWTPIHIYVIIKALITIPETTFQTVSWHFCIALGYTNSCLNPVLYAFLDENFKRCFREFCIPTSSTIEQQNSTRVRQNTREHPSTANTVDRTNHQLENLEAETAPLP
UniProt Q01959, whole entry: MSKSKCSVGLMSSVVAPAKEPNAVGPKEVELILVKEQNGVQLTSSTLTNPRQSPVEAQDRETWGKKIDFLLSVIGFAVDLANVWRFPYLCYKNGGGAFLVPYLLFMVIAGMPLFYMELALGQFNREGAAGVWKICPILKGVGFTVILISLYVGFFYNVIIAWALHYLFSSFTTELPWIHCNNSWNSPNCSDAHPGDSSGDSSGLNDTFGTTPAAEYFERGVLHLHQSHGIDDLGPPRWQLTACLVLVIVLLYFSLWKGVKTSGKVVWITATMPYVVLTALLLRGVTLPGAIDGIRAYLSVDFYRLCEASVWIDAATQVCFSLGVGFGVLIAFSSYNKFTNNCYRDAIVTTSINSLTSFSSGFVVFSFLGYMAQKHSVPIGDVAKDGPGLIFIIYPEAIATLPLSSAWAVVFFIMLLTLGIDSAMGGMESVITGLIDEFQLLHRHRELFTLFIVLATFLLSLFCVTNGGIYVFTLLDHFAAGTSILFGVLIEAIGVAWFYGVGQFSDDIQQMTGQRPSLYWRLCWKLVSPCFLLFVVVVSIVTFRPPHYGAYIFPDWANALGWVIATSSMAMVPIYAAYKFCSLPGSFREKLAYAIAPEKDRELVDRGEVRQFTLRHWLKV
UniProt P11229, whole entry: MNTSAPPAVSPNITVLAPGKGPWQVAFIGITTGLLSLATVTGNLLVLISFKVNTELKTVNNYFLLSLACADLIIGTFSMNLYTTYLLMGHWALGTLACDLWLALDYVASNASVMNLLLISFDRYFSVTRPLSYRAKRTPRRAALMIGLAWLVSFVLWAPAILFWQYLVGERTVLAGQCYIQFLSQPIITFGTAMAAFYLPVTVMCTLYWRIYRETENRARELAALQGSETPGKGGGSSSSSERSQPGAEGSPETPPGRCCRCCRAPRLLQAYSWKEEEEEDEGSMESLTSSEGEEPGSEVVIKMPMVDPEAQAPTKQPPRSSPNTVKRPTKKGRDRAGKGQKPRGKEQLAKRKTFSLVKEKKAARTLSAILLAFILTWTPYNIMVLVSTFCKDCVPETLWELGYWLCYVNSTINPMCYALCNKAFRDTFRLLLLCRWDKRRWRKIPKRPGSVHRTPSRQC
UniProt P01106, whole entry: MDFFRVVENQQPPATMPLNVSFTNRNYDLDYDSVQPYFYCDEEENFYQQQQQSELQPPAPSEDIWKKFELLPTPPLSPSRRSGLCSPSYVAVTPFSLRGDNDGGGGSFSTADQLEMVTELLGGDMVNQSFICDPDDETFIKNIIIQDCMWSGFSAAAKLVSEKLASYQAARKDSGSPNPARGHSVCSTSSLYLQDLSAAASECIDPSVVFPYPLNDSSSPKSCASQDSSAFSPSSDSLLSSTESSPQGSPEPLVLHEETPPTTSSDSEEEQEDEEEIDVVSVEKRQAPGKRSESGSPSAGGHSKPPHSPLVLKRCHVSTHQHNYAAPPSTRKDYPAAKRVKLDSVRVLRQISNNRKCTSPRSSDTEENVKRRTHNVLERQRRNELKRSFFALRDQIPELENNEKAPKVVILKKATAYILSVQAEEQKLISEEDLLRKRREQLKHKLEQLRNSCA
UniProt P33534, whole entry: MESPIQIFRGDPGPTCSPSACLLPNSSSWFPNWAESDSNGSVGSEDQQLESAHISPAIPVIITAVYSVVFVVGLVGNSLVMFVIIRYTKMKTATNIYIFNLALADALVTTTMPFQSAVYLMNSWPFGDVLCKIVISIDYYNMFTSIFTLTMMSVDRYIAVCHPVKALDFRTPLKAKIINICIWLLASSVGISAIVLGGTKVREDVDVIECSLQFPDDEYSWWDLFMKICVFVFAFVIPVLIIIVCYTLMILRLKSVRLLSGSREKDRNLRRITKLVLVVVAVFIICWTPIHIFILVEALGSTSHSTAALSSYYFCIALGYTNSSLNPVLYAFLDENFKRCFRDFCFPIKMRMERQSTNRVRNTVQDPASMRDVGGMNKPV
UniProt Q3TBT3, whole entry: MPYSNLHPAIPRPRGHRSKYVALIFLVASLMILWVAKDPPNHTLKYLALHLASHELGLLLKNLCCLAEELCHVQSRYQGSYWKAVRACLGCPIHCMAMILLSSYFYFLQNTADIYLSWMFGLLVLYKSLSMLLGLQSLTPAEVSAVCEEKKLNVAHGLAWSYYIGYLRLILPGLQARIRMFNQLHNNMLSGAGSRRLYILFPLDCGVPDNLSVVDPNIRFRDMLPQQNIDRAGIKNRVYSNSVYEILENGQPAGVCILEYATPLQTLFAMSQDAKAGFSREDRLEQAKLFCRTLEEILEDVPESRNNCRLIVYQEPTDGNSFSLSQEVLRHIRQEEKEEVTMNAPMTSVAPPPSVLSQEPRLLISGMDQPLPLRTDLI
UniProt P35372, whole entry, looked up: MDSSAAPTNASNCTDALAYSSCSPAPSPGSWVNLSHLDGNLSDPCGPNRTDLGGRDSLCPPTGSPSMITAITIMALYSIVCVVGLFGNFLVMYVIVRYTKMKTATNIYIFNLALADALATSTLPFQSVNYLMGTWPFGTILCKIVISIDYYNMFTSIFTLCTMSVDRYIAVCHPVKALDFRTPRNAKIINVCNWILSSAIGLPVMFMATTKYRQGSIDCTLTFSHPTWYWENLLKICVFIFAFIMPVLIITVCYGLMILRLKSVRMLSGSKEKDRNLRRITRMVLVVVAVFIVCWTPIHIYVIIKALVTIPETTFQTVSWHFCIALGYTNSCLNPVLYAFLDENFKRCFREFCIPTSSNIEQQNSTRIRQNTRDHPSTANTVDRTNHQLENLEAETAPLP
UniProt P41145, whole entry: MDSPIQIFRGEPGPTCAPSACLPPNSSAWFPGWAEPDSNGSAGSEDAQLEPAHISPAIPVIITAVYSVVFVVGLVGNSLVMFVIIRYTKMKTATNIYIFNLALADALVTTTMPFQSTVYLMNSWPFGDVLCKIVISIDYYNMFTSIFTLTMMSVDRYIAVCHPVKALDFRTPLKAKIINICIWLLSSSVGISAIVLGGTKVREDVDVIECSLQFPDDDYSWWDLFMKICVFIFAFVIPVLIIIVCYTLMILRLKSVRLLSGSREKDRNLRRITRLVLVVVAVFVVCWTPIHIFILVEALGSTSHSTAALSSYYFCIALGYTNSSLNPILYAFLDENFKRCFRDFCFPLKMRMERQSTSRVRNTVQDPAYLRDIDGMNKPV

CCCOC(=O)[C@@]12C[C@@H]1[C@@H](n1cnc3c(NC)nc(C#Cc4ccc(Cl)s4)nc31)[C@H](O)[C@@H]2O — EC50 (Sodium-dependent dopamine transporter (SLC6A3, Homo sapiens, UniProt Q01959)): 570 nM
CCCCCCCC(=O)Oc1c(Br)cc(Br)cc1CNC(=O)c1ccccc1[N+](=O)[O-] — EC50 (lasR; reporter gene, agonist; Escherichia coli JLD271 lasI-lacZ reporter): 12.2 nM
CC1(Cc2ccccc2)COc2ccc(C(=O)Nc3ccccc3I)cc21 (racemic) — EC50 (CNR2; CHO cell membranes): > 10000 nM
O=C(N[C@H]1CCCC[C@@H]1O)C1CN(Cc2ccc(-n3cccn3)cc2)c2ccccc2O1 (stereo partly shown) — EC50 (Muscarinic acetylcholine receptor M1 (CHRM1, Homo sapiens, UniProt P11229); calcium mobilization, agonist; high-expression cell line): > 10000 nM
C#CCCCN1C(=O)[C@@]2(CN2[S@@+]([O-])C(C)(C)C)c2ccccc21 (stereo partly shown) — EC50 (Myc proto-oncogene protein (MYC, Homo sapiens, UniProt P01106); protein degradation, degrader, HiBiT; HEK293-LgBiT; 24 h): 9300 nM
COc1ccc2c3c1O[C@H]1[C@H](NC(=O)c4cccc(I)c4)C=C[C@H]4[C@@H](C2)N(CC2CC2)CC[C@@]341 — EC50 (Kappa-type opioid receptor (Oprk1, Mus musculus, UniProt P33534); G protein activation, agonist; transfected cell membranes): 1.9 ± 0.09 nM
CC1(Cc2ccccc2)COc2cc(C(=O)Nc3ccccc3I)ccc21 (racemic) — EC50 (CNR2; CHO cell membranes): > 10000 nM
CC(=O)Oc1c(Br)cc(Br)cc1CNC(=O)c1ccccc1[N+](=O)[O-] — EC50 (lasR; reporter gene, agonist; Escherichia coli JLD271 lasI-lacZ reporter): 20.5 nM
CCn1nc(C)cc1C(=O)Nc1nc2cc(C(N)=O)cc(OC)c2n1C/C=C/Cn1c(NC(=O)c2cc(C)nn2CC)nc2cc(C(N)=O)cc(OCCOCCNC(=O)CCCCN=[N+]=[N-])c21 — EC50 (Stimulator of interferon genes protein (Sting1, Mus musculus, UniProt Q3TBT3); IFN-β secretion, agonist, ELISA; mouse BMDCs; carrier-free cysteine-blocked click): 52 ± 11 nM
N#Cc1cc(C(=O)N[C@@H]2CC[C@@]3(O)[C@H]4Cc5ccc(O)c6c5[C@@]3(CCN4CC3CC3)[C@H]2O6)ccn1 — EC50 (Oprm1; agonist; CHO cell membranes): 1.82 ± 0.28 nM
O=C(Oc1c(Br)cc(Br)cc1CNC(=O)c1ccccc1[N+](=O)[O-])c1ccccc1 — EC50 (lasR; reporter gene, agonist; Escherichia coli JLD271 lasI-lacZ reporter): 1.16 nM
COCOc1ccc(C(=O)OC2=C[C@@H](C(=O)OC)[C@]3(C)CC[C@H]4C(=O)O[C@H](c5ccoc5)C[C@]4(C)[C@H]3C2=O)cc1F — EC50 (Mu-type opioid receptor, with beta-arrestin-2 (OPRM1, Homo sapiens, UniProt P35372); β-arrestin recruitment, agonist): 1300 ± 80 nM
COCOc1c(Br)cc(Br)cc1CNC(=O)c1ccccc1[N+](=O)[O-] — EC50 (lasR; reporter gene, agonist; Escherichia coli JLD271 lasI-lacZ reporter): 37.6 nM
O=C(N[C@@H]1CC[C@@]2(O)[C@H]3Cc4ccc(O)c5c4[C@@]2(CCN3CC2CC2)[C@H]1O5)c1ccnc(Br)c1 — EC50 (Oprm1; agonist; CHO cell membranes): 0.42 ± 0.05 nM
COc1ccccc1C(=O)Oc1c(Br)cc(Br)cc1CNC(=O)c1ccccc1[N+](=O)[O-] — EC50 (lasR; reporter gene, agonist; Escherichia coli JLD271 lasI-lacZ reporter): 1.1 nM
COCOc1ccc(C(=O)OC2=C[C@@H](C(=O)OC)[C@]3(C)CC[C@H]4C(=O)O[C@H](c5ccoc5)C[C@]4(C)[C@H]3C2=O)cc1Br — EC50 (Kappa-type opioid receptor (OPRK1, Homo sapiens, UniProt P41145); agonist): > 10000 nM

A few entries again:
O=C(N[C@H]1CCCC[C@@H]1O)C1CN(Cc2ccc(-n3cccn3)cc2)c2ccccc2O1 (stereo partly shown) — EC50 (Muscarinic acetylcholine receptor M1 (CHRM1, Homo sapiens, UniProt P11229); calcium mobilization, agonist; high-expression cell line): > 10000 nM
C#CCCCN1C(=O)[C@@]2(CN2[S@@+]([O-])C(C)(C)C)c2ccccc21 (stereo partly shown) — EC50 (Myc proto-oncogene protein (MYC, Homo sapiens, UniProt P01106); protein degradation, degrader, HiBiT; HEK293-LgBiT; 24 h): 9300 nM
